Published values gathered from unrelated publications.
Compare with care: the assays were run in different laboratories. Values joined by “and” are separate records of one study, mostly repeats; a detail may differ. Numbers after ± are the reported error.
Target: Voltage-gated inwardly rectifying potassium channel KCNH2 (KCNH2, Homo sapiens, UniProt Q12809)
Chain of UniProt Q12809 (whole entry, looked up): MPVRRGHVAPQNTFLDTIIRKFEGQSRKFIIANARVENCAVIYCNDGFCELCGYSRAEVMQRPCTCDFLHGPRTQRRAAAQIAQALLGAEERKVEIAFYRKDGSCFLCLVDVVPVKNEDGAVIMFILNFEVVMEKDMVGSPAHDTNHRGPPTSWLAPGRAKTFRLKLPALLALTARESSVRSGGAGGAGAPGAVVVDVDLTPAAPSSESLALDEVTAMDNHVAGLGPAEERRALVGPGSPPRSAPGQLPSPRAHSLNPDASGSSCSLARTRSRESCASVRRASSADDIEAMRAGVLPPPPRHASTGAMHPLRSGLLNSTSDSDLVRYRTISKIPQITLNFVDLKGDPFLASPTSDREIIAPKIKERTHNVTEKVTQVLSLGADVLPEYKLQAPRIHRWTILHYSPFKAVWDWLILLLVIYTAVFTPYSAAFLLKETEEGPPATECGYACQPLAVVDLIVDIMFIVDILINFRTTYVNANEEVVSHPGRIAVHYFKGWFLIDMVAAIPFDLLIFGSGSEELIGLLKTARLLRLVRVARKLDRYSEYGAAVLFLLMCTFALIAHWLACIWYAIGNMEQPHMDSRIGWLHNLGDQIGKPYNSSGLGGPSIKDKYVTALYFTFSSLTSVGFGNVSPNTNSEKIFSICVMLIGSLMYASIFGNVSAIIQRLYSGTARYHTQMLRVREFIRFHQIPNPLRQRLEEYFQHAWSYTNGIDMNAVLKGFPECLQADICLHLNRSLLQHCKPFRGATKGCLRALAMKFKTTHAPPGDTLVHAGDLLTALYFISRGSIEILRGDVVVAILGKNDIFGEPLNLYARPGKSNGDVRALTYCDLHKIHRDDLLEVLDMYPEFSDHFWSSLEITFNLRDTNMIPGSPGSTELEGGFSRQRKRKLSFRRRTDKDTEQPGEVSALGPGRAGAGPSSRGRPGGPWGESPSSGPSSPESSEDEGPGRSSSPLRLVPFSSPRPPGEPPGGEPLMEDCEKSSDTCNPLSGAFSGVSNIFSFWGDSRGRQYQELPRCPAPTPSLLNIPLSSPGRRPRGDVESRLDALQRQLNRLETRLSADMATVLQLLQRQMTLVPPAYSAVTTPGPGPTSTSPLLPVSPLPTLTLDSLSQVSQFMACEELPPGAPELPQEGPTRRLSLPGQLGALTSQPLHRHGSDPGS

SMILES	assay	system	conditions	scale	measurement	result
CC1(F)CN(C(=O)Cn2c(=O)c(C(=O)NCc3ccc(Cl)cc3)cc3nc(N4CCOC4=O)cnc32)C1	ion current, inhibitor				Hill slope	1.41
CC(C)(C)NCc1ccc(Nc2ccnc3cc(Cl)ccc23)cc1O	thallium flux, blocker		100 µM, 30 min	baseline: control	inhibition	> 50%
Cc1ccc(C(=O)Nc2ccc3ccccc3c2)o1	ion current, inhibitor, whole-cell patch clamp	HEK293T transfected	10 µM, pH 7.4		inhibition	15.1% and 11.6% and 12.7% and 20.9% and 8.2%
c1ccc(OC[C@@H]2CN(CCN3CCc4ccccc43)CCO2)cc1	potassium current inhibition, inhibitor, PatchXpress electrophysiology				Hill slope	0.51 ± 0.15
COc1cnc2c(cc(C(=O)NCc3ccc(Cl)cc3)c(=O)n2CC(=O)N2CC(C)(F)C2)n1	ion current, inhibitor				Hill slope	1.37
Clc1cccc(OC[C@@H]2CN(CCN3CCc4ccccc43)CCO2)c1	potassium current inhibition, inhibitor, PatchXpress electrophysiology				Hill slope	0.49 ± 0.3
CC1(C)CN(C(=O)Cn2c(=O)c(C(=O)NCc3ccc(Cl)cc3)cc3nccnc32)C1	ion current, inhibitor				Hill slope	0.76
COc1cc2c(cc1OC)C(=O)N(CCCCN1CCN(c3ccccc3OC)CC1)C2	potassium current inhibition, inhibitor, PatchXpress electrophysiology				Emax	89.8 ± 4.6%
CCC1=C(CC)/C(=C/NC2CCCCC2)N=C1c1ccc(C)[nH]1	whole-cell patch clamp	CHO expressing hERG			Hill coefficient	1.65
CCOc1cc(-c2nncn2C)ccc1Nc1ncc2cc(C)nc(NCC(C)(C)C)c2n1			10 µM		inhibition	40.4%
CC(C)c1noc2ncc(C(=O)c3ccccc3O)cc12	ion current, whole-cell patch-clamp	HEK-293T	10 µM		inhibition	8.54%
Cc1cc(/C=C/C#N)cc(C)c1Nc1ccnc(Nc2ccc(C#N)cc2)n1	hERG current, manual patch clamp	CHO stably expressing hERG	3 µM		inhibition	74.8%
CNCCN1CCN(c2cnc3c(cc(C(=O)NCc4ccc(Cl)cc4)c(=O)n3CC(=O)N3CC(C)(F)C3)n2)C1=O.Cl				baseline: hERG IC50 over antiviral EC50	therapeutic index	> 190 and > 120
O=C(c1ccc(F)cc1)N(Cc1ccccc1)C1CCCCC1			10 µM		inhibition	24%
O=C1c2ccccc2CCCN1CCCCN1CCN(c2ccccn2)CC1	potassium current inhibition, inhibitor, PatchXpress electrophysiology				Emax	95.2 ± 5.2%
Cc1ccc2c(c1)C(=O)[C@]1(O)CCN(c3ccc4nc(C)ccc4c3)C1=N2.Cl	ion channel panel	human cells	concentration not given		inhibition	< 25%
CC1(F)CN(C(=O)Cn2c(=O)c(C(=O)NCc3ccc(Cl)cc3)cc3nccnc32)C1				baseline: hERG IC50 over antiviral EC50	therapeutic index	1.6
COc1cc(N)c(Cl)cc1C(=O)NC1CCN(CCCOc2ccc(F)cc2)CC1OC (stereo not drawn)	ion current, inhibitor, whole-cell patch clamp	CHO expressing hERG	0.3 µM		inhibition	98.9 ± 0.85%
NC/C(=C\F)COc1cccc(Cn2c(=S)[nH]c(=O)c3[nH]cnc32)c1	ion current		10 µM		inhibition	< 50%
O=C(NO)c1ccc(CN2CCCCc3ccccc32)c(F)c1	radioligand binding		10 µM		inhibition of radioligand binding	16%
CC1(F)CN(C(=O)Cn2c(=O)c(C(=O)NCc3ccc(Cl)cc3)cc3nc(N4CCCC4=O)cnc32)C1				baseline: hERG IC50 over antiviral EC50	therapeutic index	> 235
Clc1cncc(OC[C@@H]2CN(CCN3CCc4ccccc43)CCO2)c1	potassium current inhibition, inhibitor, PatchXpress electrophysiology				Emax	89.9 ± 10%
CC1(F)CN(C(=O)Cn2c(=O)c(C(=O)NCc3ccc(Cl)cc3)cc3nc(N4CCN(CC(=O)O)C4=O)cnc32)C1	ion current, inhibitor				Hill slope	0.5
CN(C)c1ccc2cc(C(=O)NS(=O)(=O)c3ccccc3-c3ccccc3)oc2c1	automated patch clamp		concentration not given		hERG inhibition	negative

Some of these lines once more:
SMILES	assay	system	conditions	scale	measurement	result
Clc1cncc(OC[C@@H]2CN(CCN3CCc4ccccc43)CCO2)c1	potassium current inhibition, inhibitor, PatchXpress electrophysiology				Emax	89.9 ± 10%
c1ccc(OC[C@@H]2CN(CCN3CCc4ccccc43)CCO2)cc1	potassium current inhibition, inhibitor, PatchXpress electrophysiology				Hill slope	0.51 ± 0.15
CCC1=C(CC)/C(=C/NC2CCCCC2)N=C1c1ccc(C)[nH]1	whole-cell patch clamp	CHO expressing hERG			Hill coefficient	1.65
